Published values collected from several papers.
Parts stem from different laboratories: compare values within a part only.

Sample 1 — observed: enzyme activity; action: inhibitor; concentration: 0.5 µM; baseline: control
Target: Homeodomain-interacting protein kinase 1 (HIPK1, Homo sapiens, UniProt Q86Z02)
UniProt Q86Z02, sequence (whole entry, looked up): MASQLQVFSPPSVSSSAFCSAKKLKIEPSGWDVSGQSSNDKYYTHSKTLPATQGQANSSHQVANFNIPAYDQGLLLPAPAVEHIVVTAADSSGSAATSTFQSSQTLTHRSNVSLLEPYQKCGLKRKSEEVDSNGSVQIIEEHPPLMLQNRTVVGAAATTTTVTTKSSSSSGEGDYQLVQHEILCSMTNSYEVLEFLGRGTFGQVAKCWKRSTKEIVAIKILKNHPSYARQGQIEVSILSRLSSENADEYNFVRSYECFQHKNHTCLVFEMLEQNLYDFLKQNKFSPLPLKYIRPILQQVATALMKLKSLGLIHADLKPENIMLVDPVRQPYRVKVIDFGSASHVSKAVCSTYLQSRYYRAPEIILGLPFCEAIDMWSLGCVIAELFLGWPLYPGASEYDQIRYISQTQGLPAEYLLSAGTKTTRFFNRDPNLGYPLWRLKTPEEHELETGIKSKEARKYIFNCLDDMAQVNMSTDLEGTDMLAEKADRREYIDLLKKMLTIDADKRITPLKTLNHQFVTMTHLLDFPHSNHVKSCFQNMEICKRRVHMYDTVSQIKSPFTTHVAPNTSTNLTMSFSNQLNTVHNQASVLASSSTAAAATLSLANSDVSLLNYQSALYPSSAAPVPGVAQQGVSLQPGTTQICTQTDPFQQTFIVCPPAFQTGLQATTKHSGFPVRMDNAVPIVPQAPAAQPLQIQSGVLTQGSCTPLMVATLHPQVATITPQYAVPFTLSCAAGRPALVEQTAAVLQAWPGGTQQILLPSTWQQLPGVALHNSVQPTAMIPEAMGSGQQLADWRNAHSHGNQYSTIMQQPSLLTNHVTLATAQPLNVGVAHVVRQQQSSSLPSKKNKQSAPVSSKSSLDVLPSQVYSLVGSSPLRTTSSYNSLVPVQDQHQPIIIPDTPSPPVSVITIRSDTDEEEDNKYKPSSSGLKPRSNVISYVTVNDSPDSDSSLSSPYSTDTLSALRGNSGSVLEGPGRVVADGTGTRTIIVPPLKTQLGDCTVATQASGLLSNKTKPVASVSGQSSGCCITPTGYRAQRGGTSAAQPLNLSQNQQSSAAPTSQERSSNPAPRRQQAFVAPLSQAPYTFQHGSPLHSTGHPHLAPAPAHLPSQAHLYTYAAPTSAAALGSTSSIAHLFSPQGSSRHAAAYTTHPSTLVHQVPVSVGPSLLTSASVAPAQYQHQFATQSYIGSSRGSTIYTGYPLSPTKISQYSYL
| Structure (SMILES) | remaining activity [%] |
| --- | --- |
| COc1cc2ncnc(Nc3cccc(Cl)c3)c2cc1OC | 98.7 |
| O=C1c2ccccc2-c2n[nH]c3cccc1c23 | 93.9 |
| Cc1cn(-c2cc(NC(=O)c3ccc(C)c(Nc4nccc(-c5cccnc5)n4)c3)cc(C(F)(F)F)c2)cn1 | 97.7 |
| Cc1cc2ncc(-c3ccccc3)nc2cc1C | 105 |
| N#Cc1c(NC(=O)c2cccc3ccccc23)sc2c1CCCC2 | 107 |
| COc1cc2ncnc(Nc3ccc(O)c(Br)c3)c2cc1OC | 104 |
| CN([C@@H](Cc1ccc(OS(=O)(=O)c2cccc3cnccc23)cc1)C(=O)N1CCN(c2ccccc2)CC1)S(=O)(=O)c1cccc2cnccc12 | 110 |
| COc1cc2c(cc1OC)-c1[nH]nc(Nc3cccc(F)c3)c1C2 | 96.4 |
| O=c1cc(-c2cccc3c2Sc2ccccc2S3)oc(N2CCOCC2)c1 | 99.6 |
| O=C(Nc1cccc(Nc2nccc(Nc3cccc(C(F)(F)F)c3)n2)c1)C1CC1 | 98.7 |
| Cn1nc2c3c(cccc31)C(=O)c1ccccc1-2 | 112 |
| c1ccc(-c2cnc(Nc3ccc(OCCN4CCCC4)cc3)s2)cc1 | 91.3 |
| Nc1cccc(-c2cc3c(Oc4cccc(O)c4)ncnc3[nH]2)c1 | 82.7 |
| Cc1nc2cc3nc(-c4cccs4)cnc3cc2n1C | 103 |
| N#C/C(=C\c1ccc(O)c(O)c1)C(=O)NCc1ccccc1 | 101 |
| CCN(CC)CCNC(=O)c1c(C)[nH]c(/C=C2\C(=O)Nc3ccc(F)cc32)c1C | 71.3 |
| CCN(CC)CCNC(=O)c1c(C)[nH]c(/C=C2\C(=O)Nc3ccc(Cl)cc32)c1C | 96.9 |
| c1ccc(-c2[nH]ncc2-c2ccnc3ccccc23)nc1 | 99.9 |
| Ic1cccc(CSc2nnc(-c3ccncc3)o2)c1 | 105 |
| C[C@@H]1CCN(C(=O)CC#N)C[C@@H]1N(C)c1ncnc2[nH]ccc12 | 98.1 |
| O=C(NC(NC(=S)Nc1ccc(F)c([N+](=O)[O-])c1)C(Cl)(Cl)Cl)C(c1ccccc1)c1ccccc1 (centres unmarked) | 108 |
| CN(C)C[C@H]1CCn2c(c(C3=C(c4cn(C)c5ccccc45)C(=O)NC3=O)c3ccccc32)C1 | 101 |
| CCN(CC)C(=O)c1ccc(Nc2nc(OCC3CCCCC3)c3[nH]cnc3n2)cc1 | 104 |
| O=C1C(Cl)=C(N2C(=O)CCC2=O)C(=O)c2ccccc21 | 104 |

Sample 2 — host: idiopathic pulmonary fibrosis patients
Compound: CC(C)n1cnc(-c2ccc(F)cc2)c1-c1ncc(C(=O)Nc2ccc(N3CCN(C)CC3)cc2)[nH]1
| method | refers to | dose | notes | adverse event incidence [%] |
| --- | --- | --- | --- | --- |
| phase 2a trial | liver injury | 60 mg once daily | grade 2 | 0 |
| phase 2a trial | proteinuria | dose not given | grade 5, all arms pooled | 0 |
| phase 2a trial | arthritis | dose not given | grade 5, all arms pooled | 0 |
| phase 2a trial | chronic gastritis | 30 mg once daily | grade 1 | 0 |
| phase 2a trial | carotid intima-media thickening | dose not given | grade 2, all arms pooled | 0 |
| phase 2a trial | carotid intima-media thickening | 60 mg once daily | grade 2 | 0 |
| phase 2a trial | gingivitis | dose not given | grade 1, all arms pooled | 0 |
| phase 2a trial | weight decreased | 60 mg once daily | grade 5 | 0 |
| phase 2a trial | hepatic enzyme abnormal | 30 mg once daily | grade 1 | 0 |
| phase 2a trial | QRS axis abnormal | dose not given | grade 2, all arms pooled | 0 |
| phase 2a trial | gingivitis | 30 mg once daily | grade 1 | 0 |
| phase 2a trial | chronic gastritis | 60 mg once daily | grade 2 | 0 |
| phase 2a trial | chronic gastritis | 30 mg once daily | grade 3 | 0 |
| – | – | dose not given | ECG high voltage grade 5 | 0 |
| phase 2a trial | weight decreased | 60 mg once daily | grade 2 | 0 |
| phase 2a trial | hydroxybutyrate dehydrogenase increased | 60 mg once daily | grade 3 | 0 |

Sample 3 — observed: ligand displacement; method: radioligand; concentration: 10 µM
Target: 5-hydroxytryptamine receptor 1E (HTR1E, Homo sapiens, UniProt P28566)
UniProt P28566, sequence (whole entry, looked up): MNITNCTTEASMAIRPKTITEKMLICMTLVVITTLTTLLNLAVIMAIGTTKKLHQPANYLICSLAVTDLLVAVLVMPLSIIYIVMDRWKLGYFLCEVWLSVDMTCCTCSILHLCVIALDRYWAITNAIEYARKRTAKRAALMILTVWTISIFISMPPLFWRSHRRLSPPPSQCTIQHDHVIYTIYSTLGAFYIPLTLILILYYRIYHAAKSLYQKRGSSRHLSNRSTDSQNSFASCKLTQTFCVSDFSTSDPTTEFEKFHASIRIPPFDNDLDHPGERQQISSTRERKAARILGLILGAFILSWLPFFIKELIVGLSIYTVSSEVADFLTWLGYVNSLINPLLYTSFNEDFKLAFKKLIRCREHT
| SMILES | inhibition [%] |
| --- | --- |
| CCc1ccccc1C(=O)Nc1n[nH]c2c(C)c(F)c(C3C(C#N)=C(C)N(C)C(C)=C3C#N)cc12 | 2.66 |
| Cc1cnc(-c2cc(Cl)ccc2F)cc1-n1c(=O)n(CC(N)=O)c2cnccc21 | -5.81 |
| CCCCN(CCCC)C(=O)CN1C[C@@H](c2cc(OC)c3c(c2)OCO3)[C@H](C(=O)O)[C@H]1CC(C)(C)CCC | 27.1 |
| CCNC(=O)c1cc2c(N3CCOC[C@@H]3C)ccnc2[nH]1 | 10.6 |
| O=C(NCc1ncc(C(F)(F)F)cc1Cl)c1ccc2c(c1)C1(CCS(=O)(=O)CC1)[C@H](C1CC1)N2S(=O)(=O)c1ccc(F)cc1 | 10.4 |
| O=C(NS(=O)(=O)c1ccc(NCC2CCOCC2)c([N+](=O)[O-])c1)c1ccc(N2CCN(Cc3ccc(C(F)(F)F)cc3-c3ccc(Cl)cc3)CC2)cc1Oc1cnc2[nH]ccc2c1 | 10.4 |
| Cc1nc(N2CC[C@@H](O)C2)ncc1-c1cc(C(F)(F)F)cc2[nH]ncc12 | -5.65 |
| CCOC(=O)c1cc2cc(-c3cc(C(=O)NCc4ccc(C(=O)O)cc4)nn3C)ccc2[nH]1 | 6.37 |
| O=C(NC[C@@H]1[C@H]2CN(C(=O)OCc3cc(C(F)(F)F)cc(C(F)(F)F)c3)C[C@@H]12)c1ccc2[nH]nnc2c1 | 33.6 |
| COc1cccc(CNC(=O)c2nc3scc(COCc4ccc(C(=O)O)cc4)c3c(=O)[nH]2)c1 | -0.179 |
| CC(=O)C1=C(C)N(c2cccc(C(F)(F)F)c2)C(=O)N[C@@H]1c1ccc(C#N)nc1 | 7.74 |
| C[C@H](NC(=O)c1cnc2n1[C@](C)(Cc1ccc(C#N)cc1)C(=O)N2c1cc(Cl)c(F)c(Cl)c1)C(=O)NC1(c2ccccn2)CC1 | 17.7 |

Sample 4 — host: mouse; medium: microsomes or S9; concentration: 2 µM; time: 0.5 h
| Structure (SMILES) | remaining compound |
| --- | --- |
| COc1ccc(C(CC(N)=O)c2c(Cc3ccc4c(c3)CCO4)[nH][nH]c2=O)cc1OC (centres unmarked) | 47.4% |
| CN1CC(c2n[nH]c(=O)n2CCc2ccccc2F)CC1=O (centres unmarked) | 53.6% |
| CCn1cc(S(=O)(=O)N2CCN(S(=O)(=O)c3cnn(C)c3)CC2)cn1 | 69.7% |
| O=C1COc2ccc(Cl)cc2CN1Cc1cc(F)cc(F)c1 | 14.7% |
| Fc1ccccc1-c1cn2c3ccccc3nc2n1CCN1CCCCC1 | 0.0141% |
| CCOc1cc(=O)n2c(c1C(=O)NCCCN1CCCc3ccccc31)CCCCC2 | < 1% |
| COC(=O)c1ccc2c(Br)c(O)c(C(=O)OC(C)(C)C)cc2c1 | 44.3% |
| CN(CC(=O)N1CCCC1)Cc1cc(=O)n(C)c(=O)n1C | 97.1% |
| CCCN1CCN(C(=O)C2=C(C)C(=O)OC23CCN(S(=O)(=O)CC)CC3)CC1 | 94.8% |
| CC(C)c1nc2sc3c(c2c(=O)[nH]1)CC(C)(C)OC3 | 63.6% |
